Measured values gathered from unrelated publications.
± marks the error that the study gave.
Nuclear receptor subfamily 2 group C member 2 ligand-binding domain: Nuclear receptor subfamily 2 group C member 2, ligand-binding domain (Homo sapiens, UniProt P49116)
Chain of UniProt P49116 (whole entry, looked up): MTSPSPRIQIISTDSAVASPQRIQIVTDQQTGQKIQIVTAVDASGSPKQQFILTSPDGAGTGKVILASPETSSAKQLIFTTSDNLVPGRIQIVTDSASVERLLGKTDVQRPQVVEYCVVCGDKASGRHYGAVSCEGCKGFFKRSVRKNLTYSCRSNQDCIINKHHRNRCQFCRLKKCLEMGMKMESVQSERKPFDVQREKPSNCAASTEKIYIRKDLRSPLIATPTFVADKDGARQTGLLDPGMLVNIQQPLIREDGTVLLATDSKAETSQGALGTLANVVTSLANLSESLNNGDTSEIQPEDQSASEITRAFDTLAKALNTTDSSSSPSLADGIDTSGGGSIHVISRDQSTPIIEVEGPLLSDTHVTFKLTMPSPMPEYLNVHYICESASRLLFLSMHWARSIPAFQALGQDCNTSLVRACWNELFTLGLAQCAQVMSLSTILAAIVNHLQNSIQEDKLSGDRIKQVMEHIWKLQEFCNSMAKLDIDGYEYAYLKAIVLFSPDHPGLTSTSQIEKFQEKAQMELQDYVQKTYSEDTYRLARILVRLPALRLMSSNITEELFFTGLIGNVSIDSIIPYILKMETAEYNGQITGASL

Nc1nc(=S)c2[nH]cnc2[nH]1
viability (OCI-Ly1; 1 µM, 120 h): 8.55%

C[C@@H]1CCO[C@H]2Cn3cc(C(=O)NCc4ccc(F)cc4F)c(=O)c(O)c3C(=O)N12
AUC(0-24) (human paediatric patients, weight sample E to under sample F kg, plasma; oral, 25 mg film-coated tablet, steady state, geometric mean, population PK post-hoc, N 1): 27900 ng·h/mL

N#Cc1ccc2c(c1)[C@H]1CCCN(C(=O)c3ccc4[nH]cnc4c3)[C@H]1C2
AUC(0-24) (human, plasma; oral, 240 mg once daily, after first dose): 141 µM·h

Cc1cc(Nc2cc3ncccc3c(N[C@@H]3C[C@H]4CC[C@@H](C3)N4CCC#N)n2)n[nH]1
AUC(0-24) (human; 30 mg, day 1): 3.01 ng·h/mL

Cc1nc(-c2ccc(OCC(C)C)c(C#N)c2)sc1C(=O)O
AUC(0-24) (human, plasma; oral, 10 mg once daily, with: verinurad 5 mg): 975 ng·h/mL

Clc1ccc(C(Cn2ccnc2)OCc2ccsc2Cl)c(Cl)c1 (stereo not drawn)
Kd (Nuclear receptor subfamily 2 group C member 2 ligand-binding domain; binding): 0.0374 nM

COc1cc(C(=O)NC2CCN(C)CC2)c(F)cc1Nc1ncc(C(F)(F)F)c(Oc2cccc3c2C(=O)N(C)C3)n1
AUC(0-24) (human patients; oral, 300 mg, cycle 1 day 1, geometric mean): 51.2 µM·h

CC(C)[C@H](N)C(=O)NCCCS(=O)(=O)O
AUC(0-24) (human both sexes, plasma; oral, 265 mg once daily, day 1, fed tablet): 10300 ng·h/mL

CC(=O)O.NC(=O)c1cnc(N[C@@H]2CCCC[C@@H]2N)nc1Nc1cccc(-n2nccn2)c1
AUC(0-24) (human, plasma; oral, 66 mg once daily): 1330 ng·h/mL

CC(C)(Sc1ccncc1-c1ccc(C#N)c2ccccc12)C(=O)O
AUC(0-24) (human, plasma; oral, 5 mg once daily, with: febuxostat 0 mg): 103 ng·h/mL

CC(=O)O[C@H]1C(=O)[C@@]2(C)[C@H]([C@H](OC(=O)c3ccccc3)[C@]3(O)C[C@H](OC(=O)[C@H](O)[C@@H](NC(=O)c4ccccc4)c4ccccc4)C(C)=C1C3(C)C)[C@]1(OC(C)=O)CO[C@@H]1C[C@@H]2O
AUC(0-24) (human, plasma; intravenous, 80 mg/m^2, day 8, DL2, with: nilotinib 300 mg): 4.4 ± 1.48 µM·h

O=C(c1ccc(OCCN2CCCCC2)cc1)c1c(-c2ccc(O)cc2)sc2cc(O)ccc12
Kd (Nuclear receptor subfamily 2 group C member 2 ligand-binding domain; SPR imaging): 1.33 nM

Cc1ccc([C@@H]2O[C@H](CO)[C@@H](O)[C@H](O)[C@H]2O)cc1Cc1ccc(-c2ccc(F)cc2)s1
AUC(0-24) (human, maintenance hemodialysis patients; oral, 100 mg once daily, day 8, steady state, mean): 8270 ng·h/mL

O=C(O)CNC(=O)C(=O)O
viability (OCI-Ly1; 1 µM, 120 h): 147%

Cn1c(=O)oc2ccc(-c3ccc(C[C@@H](C#N)NC(=O)[C@@H]4CNCCCO4)cc3)cc21
AUC(0-24) (HPLC-MS/MS; healthy male humans, plasma; oral, 40 mg): 15.7 µM·h

Repeated from above:
C[C@@H]1CCO[C@H]2Cn3cc(C(=O)NCc4ccc(F)cc4F)c(=O)c(O)c3C(=O)N12
AUC(0-24) (human paediatric patients, weight sample E to under sample F kg, plasma; oral, 25 mg film-coated tablet, steady state, geometric mean, population PK post-hoc, N 1): 27900 ng·h/mL

N#Cc1ccc2c(c1)[C@H]1CCCN(C(=O)c3ccc4[nH]cnc4c3)[C@H]1C2
AUC(0-24) (human, plasma; oral, 240 mg once daily, after first dose): 141 µM·h
